# Experimental data of several laboratories.
# ± marks the error that the study gave.
Molecule,cell line,assay,system,conditions,inhibition
Brc1ccc(-c2cc3ccccc3[nH]2)cc1,RAW264.7,"NO release, inhibitor, Griess",,"50 µM, 20 h, LPS-stimulated",42.4%
Cc1ccc(-c2cc(C(F)(F)F)nn2-c2ccc(S(N)(=O)=O)cc2)cc1,WI-38,"TNF-α release, inhibitor, ELISA",,"10 µM, LPS-stimulated",25.2%
COc1cccc(-c2cc(=O)c3ccccc3o2)c1N,NCI-H720,"antagonist, ELISA, refers to: ERK1/2 phosphorylation",,"concentration not given, 10 min preincubation, together with: lanreotide",65 ± 17%
SDGR,BHK,cell spreading on fibronectin,peptide,"up to 1.0 mg/mL, 60 min, together with: fibronectin 2 µg/mL coat",inhibited
COc1ccc2c(c1)c(CC(=O)O)c(C)n2C(=O)c1ccc(Cl)cc1,WI-38,"TNF-α release, inhibitor, ELISA",,"10 µM, LPS-stimulated",8.1%
CC(C)C[C@H](NC(=O)[C@@H](O)[C@H](N)Cc1ccccc1)C(=O)O,U-937,cell growth or viability,,145 µM,39.8%
C[C@H]1[C@H](C)CC[C@]2(C)CC[C@]3(C)C(=CC[C@@H]4[C@@]5(C)CC[C@@H](O)[C@](C)(C(=O)O)[C@@H]5CC[C@]43C)[C@H]12,WI-38,"TNF-α release, inhibitor, ELISA",,"10 µM, LPS-stimulated",28%
O=[N+]([O-])c1ccc2[nH]c(-c3ccccc3)cc2c1,RAW264.7,"NO release, inhibitor, Griess",,"50 µM, 20 h, LPS-stimulated",66.1%
Cc1cc(Nc2ncc(Cl)c(Nc3ccccc3S(=O)(=O)C(C)C)n2)c(OC(C)C)cc1C1CCNCC1,NCI-H2228,"cell growth or viability, MTT",,"0.008 µg/mL, 72 h",36.6%
ON=Cc1c(-c2ccccc2)[nH]c2ccccc12,RAW264.7,"NO release, inhibitor, Griess",,"50 µM, 20 h, LPS-stimulated",97.7%
CCCCC[C@H](CC(=O)NO)C(=O)N[C@H](C(=O)N1CCC[C@H]1CO)C(C)C,U-937,cell proliferation,,"13 µM, day 4",32.3 ± 24.3%

# For quick reference, copied from above:
Molecule,cell line,assay,system,conditions,inhibition
COc1cccc(-c2cc(=O)c3ccccc3o2)c1N,NCI-H720,"antagonist, ELISA, refers to: ERK1/2 phosphorylation",,"concentration not given, 10 min preincubation, together with: lanreotide",65 ± 17%
